Published values collected from several papers.
Each line is one published result; not all experiments were run side by side. Numbers after ± are the reported error.
rep main protease: Replicase polyprotein 1ab, main protease (rep, Severe acute respiratory syndrome coronavirus 2, UniProt P0DTD1)
tcdB: Toxin B (tcdB, Clostridioides difficile, UniProt P18177)
Spike glycoprotein: Spike glycoprotein (Severe acute respiratory syndrome coronavirus 2, UniProt P0DTC2)

`CCOC(=O)c1ccc(OC(=O)CCCCCN=C(N)N)cc1.CS(=O)(=O)O` has an inhibition of -0.479% (rep main protease; reporter gene (mKate2), inhibitor; 20 µM).
The IC50 of `CCC(C(=O)Nc1ccccc1C)n1cccc2nc(S(=O)(=O)Cc3ccc(F)cc3)nc1-2` (stereo not drawn) is reported as 5.35 ± 0.46 µM (Replicase polyprotein 1ab, papain-like protease (rep, Severe acute respiratory syndrome-related coronavirus, UniProt P0C6X7); enzyme activity).
With `CSCC[C@H](N)C(=O)N[C@@H](CC(=O)O)C(=O)N[C@H](C(=O)N[C@@H](CCC(N)=O)C(=O)N[C@@H](Cc1c[nH]c2ccccc12)C(=O)N[C@@H](CCCNC(=N)N)C(=O)N[C@@H](CCCNC(=N)N)C(=O)N[C@@H](Cc1c[nH]c2ccccc12)C(=O)O)[C@@H](C)O` the Ki was 832 µM (tcdB; enzyme activity, inhibitor).
`DAMGO` has a Ki of 0.0014 ± 0.00056 µM (opioid receptor mouse; binding; CD-1 mouse brain).
The Ki of `CSCC[C@H](NC(=O)[C@@H](N)CCC(=O)O)C(=O)N[C@@H](Cc1c[nH]cn1)C(=O)N[C@@H](CCC(N)=O)C(=O)N[C@@H](Cc1c[nH]c2ccccc12)C(=O)N[C@@H](CCCNC(=N)N)C(=O)N[C@@H](CCCNC(=N)N)C(=O)N[C@@H](Cc1c[nH]c2ccccc12)C(=O)O` is reported as 618 µM (tcdB; enzyme activity, inhibitor).
For `COc1ccc(C[C@@H]2c3cc(Oc4cc(C[C@@H]5c6cc(O)c(OC)cc6CCN5C)ccc4O)c(OC)cc3CCN2C)cc1`, the Kd was 32.5 µM (Spike glycoprotein; binding, biolayer interferometry).
`CCC(C(=O)Nc1ccccc1C)n1cccc2nc(S)nc1-2` (stereo not drawn) has an IC50 of greater than 20 µM (Replicase polyprotein 1ab, papain-like protease (rep, Severe acute respiratory syndrome-related coronavirus, UniProt P0C6X7); enzyme activity).
`CNC(=O)[C@@H](NC(=O)[C@H](CC(C)C)[C@H](O)C(=O)NO)C(C)(C)C` gave a remaining activity of 0% (Daboia russelii venom proteases (SVMP); protease activity, inhibitor; MH population; 10 µM, added: azocasein substrate; baseline: venom alone).
`CCC(C(=O)Nc1ccccc1C)n1cccc2nc(SCc3ccccc3F)nc1-2` (stereo not drawn) has an IC50 of greater than 100 µM (Replicase polyprotein 1ab, papain-like protease (rep, Middle East respiratory syndrome-related coronavirus, UniProt K9N7C7); enzyme activity, inhibitor).
For `NCCNCCNCCN`, the AC50 was 6.7 µM (ACE2 (Homo sapiens, UniProt Q9BYF1)).
`Nc1ncnc2c1ccn2C1CCN(C(=O)c2ccc(S(=O)(=O)F)cc2)CC1` has an EC50 of 0.012 µM (cya (Bacillus anthracis, UniProt P40136); cell-based activity, inhibitor).
For `CCC(C(=O)Nc1cc(NC2CCNC2)ccc1C)n1cccc2nc(SCc3ccc(F)cc3)nc1-2` (stereo not drawn), the IC50 was greater than 100 µM (Replicase polyprotein 1ab, papain-like protease (rep, Middle East respiratory syndrome-related coronavirus, UniProt K9N7C7); enzyme activity, inhibitor).
`COc1ccc(/C=C/c2cc(O)cc(O)c2)cc1O` has a Kd of 58.6 µM (Spike glycoprotein; binding, BLI).
For `Cn1cnc(Cn2c(=O)[nH]/c(=N\c3cc4cn(C)nc4cc3Cl)n(Cc3cc(F)c(F)cc3F)c2=O)n1`, “patients with adverse event” read 0% (human, mild renal impairment; oral, 375 mg, treatment-related decreased GFR, Moderate severity).
`CC(C)(C)NC(=O)N[C@H](C(=O)N1C[C@H]2[C@@H]([C@H]1C(=O)NC(CC1CCC1)C(=O)C(N)=O)C2(C)C)C(C)(C)C` (stereo partly drawn) gave an inhibition of 10.1% (rep main protease; reporter gene (mKate2), inhibitor; 20 µM).
`c1ccc(CCN2CCCCC2)cc1` gave a Ki of greater than 10 µM (sodium channel site 2, rat; binding; rat forebrain; added: [3H]batrachotoxin 2 nM).
For `CCC(C(=O)Nc1cc(NC2CCOC2)ccc1C)n1cc(Br)cc2nc(SCc3ccc(F)cc3)nc1-2` (stereo not drawn), the IC50 was greater than 100 µM (Replicase polyprotein 1ab, papain-like protease (rep, Middle East respiratory syndrome-related coronavirus, UniProt K9N7C7); enzyme activity, inhibitor).
For `CC(C)=CCc1cc2c(cc1O)O[C@H](c1ccc(O)cc1)CC2=O`, the Kd was 43.8 µM (Spike glycoprotein; binding, BLI).
`Nc1ncnc2c([C@@H]3N[C@H](CO)[C@@H](O)[C@H]3O)c[nH]c12` has an inhibition of 0.8% (Venezuelan equine encephalitis virus; viral replication; HeLa, SH3; 0.4 µM).
`C=C1C[C@@]23CC[C@H]4[C@@](C)(CCC[C@@]4(C)C(=O)O[C@@H]4O[C@H](CO)[C@@H](O)[C@H](O)[C@H]4O)[C@@H]2CC[C@]1(O[C@@H]1O[C@H](CO)[C@@H](O)[C@H](O)[C@H]1O)C3` gave a Kd of 1.21 µM (Spike glycoprotein; binding, biolayer interferometry).
`CC(C)C[C@H](NC(=O)[C@@H](NC(=O)[C@@H](N)Cc1c[nH]cn1)[C@@H](C)O)C(=O)N[C@@H](CCC(=O)O)C(=O)N[C@@H](Cc1c[nH]c2ccccc12)C(=O)N[C@@H](CCCNC(=N)N)C(=O)N[C@@H](CCCNC(=N)N)C(=O)N[C@@H](Cc1c[nH]c2ccccc12)C(=O)O` has a Ki of 163 µM (Toxin B, glucosyltransferase domain (tcdB, Clostridioides difficile, UniProt Q9EXR0)).
`C[C@@H]1O[C@@H](O[C@H]2C(=O)c3c(O)cc(O)cc3O[C@@H]2c2ccc(O)c(O)c2)[C@H](O)[C@H](O)[C@H]1O` gave a Kd of 32.5 µM (Spike glycoprotein; binding, biolayer interferometry).
Under “subjects with treatment-emergent ADA”, `CC[C@H](C)[C@H](NC(=O)[C@H](CC(C)C)NC(=O)[C@H](Cc1c[nH]c2ccccc12)NC(=O)[C@H](CCC(N)=O)NC(=O)[C@@H](NC(=O)[C@H](Cc1ccccc1)NC(=O)[C@H](C)NC(=O)[C@H](CCCCNC(=O)COCCOCCNC(=O)COCCOCCNC(=O)CC[C@H](NC(=O)CCCCCCCCCCCCCCCCCCC(=O)O)C(=O)O)NC(=O)[C@H](CCC(N)=O)NC(=O)[C@H](C)NC(=O)[C@@H](NC(=O)[C@H](CCCCN)NC(=O)[C@H](CC(=O)O)NC(=O)[C@H](CC(C)C)NC(=O)C(C)(C)NC(=O)[C@@H](NC(=O)[C@H](CO)NC(=O)[C@H](Cc1ccc(O)cc1)NC(=O)[C@H](CC(=O)O)NC(=O)[C@H](CO)NC(=O)[C@@H](NC(=O)[C@H](Cc1ccccc1)NC(=O)[C@@H](NC(=O)CNC(=O)[C@H](CCC(=O)O)NC(=O)C(C)(C)NC(=O)[C@@H](N)Cc1ccc(O)cc1)[C@@H](C)O)[C@@H](C)O)[C@@H](C)CC)[C@@H](C)CC)C(C)C)C(=O)N[C@@H](C)C(=O)NCC(=O)NCC(=O)N1CCC[C@H]1C(=O)N[C@@H](CO)C(=O)N[C@@H](CO)C(=O)NCC(=O)N[C@@H](C)C(=O)N1CCC[C@H]1C(=O)N1CCC[C@H]1C(=O)N1CCC[C@H]1C(=O)N[C@@H](CO)C(N)=O` is recorded as 0% (measured: anti-drug antibodies; patients with type 2 diabetes; 5 mg, postbaseline, proof of concept).
`CC[C@H](C)[C@H]1O[C@]2(CC[C@@H]1C)C[C@@H]1C[C@@H](C/C=C(\C)[C@@H](O[C@H]3C[C@H](OC)[C@@H](O[C@H]4C[C@H](OC)[C@@H](O)[C@H](C)O4)[C@H](C)O3)[C@@H](C)/C=C/C=C3\CO[C@@H]4[C@H](O)C(C)=C[C@@H](C(=O)O1)[C@]34O)O2` gave a Kd of 30.5 µM (Spike glycoprotein; biolayer interferometry).
`Cn1cnc(Cn2c(=O)[nH]/c(=N\c3cc4cn(C)nc4cc3Cl)n(Cc3cc(F)c(F)cc3F)c2=O)n1` has an IC50 of greater than 100 µM (CYP2C19 (Homo sapiens, UniProt P33261); inhibitor; human liver microsomes; 30 min preincubation, preincubation with NADPH, added: S-mephenytoin 60 µM).
`CC(=O)O[C@@H]1[C@@H](O)[C@H](O[C@H]2CC[C@]34C[C@]35CC[C@]3(C)[C@@H]([C@@]6(C)CC[C@@H](C(C)(C)O)O6)[C@@H](O)C[C@@]3(C)[C@@H]5C[C@H](O[C@@H]3O[C@H](CO)[C@@H](O)[C@H](O)[C@H]3O)[C@H]4C2(C)C)OC[C@H]1O` has a Kd of 168 µM (Spike glycoprotein; binding).
With `COc1cccc(-c2nc(C(=O)NCC=CS(C)(=O)=O)c(C)[nH]2)c1` the Ki was 5 ± 1.3 µM (Polyprotein P1234, nsP2 protease domain (Chikungunya virus, UniProt Q5XXP4); time-dependent inhibitor).

Some of these lines once more:
`CC[C@H](C)[C@H]1O[C@]2(CC[C@@H]1C)C[C@@H]1C[C@@H](C/C=C(\C)[C@@H](O[C@H]3C[C@H](OC)[C@@H](O[C@H]4C[C@H](OC)[C@@H](O)[C@H](C)O4)[C@H](C)O3)[C@@H](C)/C=C/C=C3\CO[C@@H]4[C@H](O)C(C)=C[C@@H](C(=O)O1)[C@]34O)O2` gave a Kd of 30.5 µM (Spike glycoprotein; biolayer interferometry).
For `CCC(C(=O)Nc1cc(NC2CCOC2)ccc1C)n1cc(Br)cc2nc(SCc3ccc(F)cc3)nc1-2` (stereo not drawn), the IC50 was greater than 100 µM (Replicase polyprotein 1ab, papain-like protease (rep, Middle East respiratory syndrome-related coronavirus, UniProt K9N7C7); enzyme activity, inhibitor).
